Experimental data from different studies.
Each numbered part is a random draw from the data of one study; scales do not carry over between parts. Positions count from the first letter of the parent shown.

Block 1
Target: Histone acetyltransferase KAT6A, winged helix 2, GST fusion (KAT6A, Homo sapiens, UniProt Q92794, residues 85-181)
Method: protein binding microarray
Molecule type: double-stranded DNA, one strand shown
Medium: in vitro
Tested at: not given
Notes: 8-mer, flanks averaged, mean of 2 arrays, mostly near background
Baseline: not given
Reading: higher = stronger binding
Endpoint: E-score
Construct (chain): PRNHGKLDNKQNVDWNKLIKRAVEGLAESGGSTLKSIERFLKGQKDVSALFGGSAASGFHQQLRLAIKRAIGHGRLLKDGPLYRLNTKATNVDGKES
GCTCTGAA: 0.0574
GGAGTCCC: -0.0961
ACTACGGA: -0.154
ACCCGCGG: 0.162
ATGTACCG: -0.234
AATGTTAA: -0.157
GTAAGAAA: 0.0582
ATCGTACC: -0.175
ACAGGTAC: -0.151
AGATTCGC: -0.0294
GGGCGAGA: 0.0469
CGCCTCGC: 0.209
CGATTTAC: -0.0663
ATAGAACG: 0.044
CAGCCTGG: 0.022
GTCAGACA: 0.02
ATGGAGCA: 0.123
CGATCTCA: -0.105
GACTATAA: -0.137
ACTTTAGG: -0.154
CCGTCGGC: 0.139

Block 2
Target: CCNA2, cyclin fold, Cln2 fusion (human)
Method: yeast growth competition, sequencing
Medium: yeast
Notes: strong parent motif
Baseline: not given
Reading: higher = stronger binding
Endpoint: normalised enrichment score
Starting sequence: PPP1R3F docking peptide (human); VAPRRVLFADEAL
VAPRKVLFADEAL [R5K]: 1.32
VAPRRVLFAAEAL [D10A]: 1.86
VAPRRVLFADEAA [L13A]: 2.11
VAPRAVAFADEAL [R5A L7A]: -0.23
VAPRKVLLADEAL [R5K F8L]: 0.427
VAPARVLFADEAL [R4A]: 0.638
VAPRRALFADEAL [V6A]: 2.77
VAPRAVLFADEAL [R5A]: 0.662

Block 3
Target: ABI1, truncated, D143A, DHFR fusion (Arabidopsis thaliana)
Method: DHFR PCA, deep sequencing
Medium: yeast
Notes: methotrexate growth selection, single substitutions
Together with: (+)-ABA 58 µM
Baseline: wild-type fitted maximum
Reading: higher = stronger binding
Endpoint: relative binding score
Starting sequence: PYL1, truncated, DHFR fusion (Arabidopsis thaliana); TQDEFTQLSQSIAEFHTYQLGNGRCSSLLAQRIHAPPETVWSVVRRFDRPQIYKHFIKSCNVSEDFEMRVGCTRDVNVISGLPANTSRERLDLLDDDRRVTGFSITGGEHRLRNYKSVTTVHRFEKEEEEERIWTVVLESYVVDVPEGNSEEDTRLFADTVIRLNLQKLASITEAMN; partner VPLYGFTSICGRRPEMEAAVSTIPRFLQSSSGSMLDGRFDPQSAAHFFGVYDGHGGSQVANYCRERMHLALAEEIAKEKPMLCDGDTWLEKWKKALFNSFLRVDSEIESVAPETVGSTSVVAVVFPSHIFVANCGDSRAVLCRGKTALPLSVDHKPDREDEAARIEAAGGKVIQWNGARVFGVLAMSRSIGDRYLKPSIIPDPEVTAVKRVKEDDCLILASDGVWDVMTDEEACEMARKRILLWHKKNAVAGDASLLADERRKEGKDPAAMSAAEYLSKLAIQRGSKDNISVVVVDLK
Q10I: 69.9%
F5D: 69.2%
R24S: 83.7%
E64V: 79.1%
V62D: 19.2%
N165I: -1.98%
L94T: 25.1%
G107P: 6.61%
E129S: 94.4%
E4C: 83.6%
M176V: 81.2%
H110I: 0.808%
S59L: 50.4%
L164C: 89.2%
D65A: 79.2%
T101F: 99.2%
L29G: -5.44%

Block 4
Target: RNA binding protein fox-1 homolog 2, RRM domain, GST-SBP tag (RBFOX2, Homo sapiens, UniProt O43251-10, residues 100-194)
Method: RNA Bind-n-Seq
Molecule type: RNA
Medium: in vitro
Tested at: 365 nM
Notes: natural RNA segment, single round, ends assumed
Baseline: no-protein control
Reading: higher = stronger binding
Endpoint: RBNS enrichment (R)
All sequences stand within: GGGAGUUCUACAGUCCGACGAUC … UGGAAUUCUCGGGUGCCAA
Construct (chain): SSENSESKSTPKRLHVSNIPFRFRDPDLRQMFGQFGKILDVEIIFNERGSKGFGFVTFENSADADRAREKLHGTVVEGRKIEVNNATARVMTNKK
CAUGAAUAAAGGUAUGUAUGUACGAAUGUGUAUAUAUUAUAUAUAUGACAUCUAUUUUGGAAAAUGUUUGCCCUGCUGUACCUCAUUUUUAGGAGGUGUGCAUGGAUGCA: 1.12
CUCAGGUGCAGCCAUGACUCCCCACUCUGUGCAUUCCACCUUCCAGUUGUUUUUCUCUGAGGGGGUAGUGGGGGGGUCAGCAUGAUUAUAUUUUAAUGUAGAAAAUGUGA: 1.53
UGCAUUUCCAUUUUUUCCUCUCUUCCAAUUUAUUCUCCAUGUAACAGAGUAGUUUGGUUUUUAAAAUAUCUGGUGAUGUCAUUCUCUUGCUUAGAACACUAGCUUCCUGU: 0.276
UCUCCGCUUUGCCCCCACGGGGUUCCUCUAACCAGAACCAGCUUCCUAGCCUCGUAGAGACCAAAGGCCGCCCCCGCCUGCUGGGGUUCCUCCCAGCACCCCAGCUUGCU: 0.473
UAAAUGCUGUUGACUGUGCUAUUAACUGCUGCCGUCAGUAAACUCCAAAGAUCUUUUUGUUUUGGCUUUAGUAUCAUAUGUGCUUUUUCUGUAUCCUGAGCGCUCUAUAU: 1.72
AAACUUGGCUCCAGGGUUGGUGCUUCUUAAAUGGGGAAAGGCACAGUGAACUUCAGCCAUAUUAAGGACGUGGUCUGUGGUUUAUCACCAGACUUGUUCACUCCAUUCAA: 0.386
CCUGGGUCACCAGCCAUAGGGUACAGCCAGCCCCAGUGUGUGGUCUUGUUGGCCUGCUGGGUAGAACCUUUGCUUCAGGCUUCAUGCUCACAGCUUCCUGUCCUUUGCCC: 0.238
GGAAUUUGUUGUCUGCUUCUAAGCUAGAGUGGUUGUAAAGGUUCUGCUCUGCCAGUGUUCAGUAUCAGUGGCUGAAUUAUGGAUAAGAACUGUAGAGAAUCUUCUGUUUA: 0.611
GGACAUUCAUGCUCAGUACUUAAGGGAAUAUGCAUUGUCUGCAAUGGUGACUGAUUUCAAAUCAUGUUUUUUCUGCAAUGACUGUGGAGUUCCAUUCUUGGCAUCUACUC: 0.33
CUGCGCUGUGGCUGUCCCUGGACGUGCUGCAGCCCUCCUGUCCCUUCCCCCCAGUCAGUAUUACCCUGUGAAGCCCCUUCCCUCCUUUAUUAUUCAGGAGGGCUGGGGGG: 0.245
UGAUACUUCAUGUAUUUGAAUAUAGUUAAAUCGUAUUAUUUUUUUCUUAACAGAAAUAUUUUUAAAAAUGAAAAAGUACUCAAAAGUGAGAAGAGUUAACUUGUCAAAGC: 0.509
GUGCCAUAGAAUGGCACAUGUCAUUGCCCACUUCUGUGUAGACAUGGUUCUGGUUUAACUAAUAUUUGUCUGUGUGCUACUAACAGAUUAUAAUAAAUUGUCAUCAGUGA: 0.597

Block 5
Target: Ras GTPase-activating protein-binding protein 1, C-terminal RGG region (G3BP1, Homo sapiens, UniProt Q13283)
UniProt Q13283, sequence (whole entry, looked up): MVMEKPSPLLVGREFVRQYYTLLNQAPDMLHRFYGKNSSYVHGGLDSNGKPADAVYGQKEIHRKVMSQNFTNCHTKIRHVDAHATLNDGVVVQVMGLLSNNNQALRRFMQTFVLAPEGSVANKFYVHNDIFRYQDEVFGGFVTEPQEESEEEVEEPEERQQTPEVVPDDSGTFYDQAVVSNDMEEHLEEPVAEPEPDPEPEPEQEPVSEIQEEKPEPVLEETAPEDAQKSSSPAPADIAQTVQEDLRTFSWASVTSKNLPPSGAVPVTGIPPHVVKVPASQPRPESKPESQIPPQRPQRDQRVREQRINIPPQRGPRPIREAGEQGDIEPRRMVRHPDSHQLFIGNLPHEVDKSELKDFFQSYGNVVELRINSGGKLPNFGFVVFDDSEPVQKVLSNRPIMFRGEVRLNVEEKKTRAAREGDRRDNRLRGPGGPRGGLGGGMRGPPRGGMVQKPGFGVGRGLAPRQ
Method: RNA Bind-n-Seq
Molecule type: RNA
Medium: in vitro
Tested at: 1 µM
Notes: whole 134-nt RNA, ends assumed
Together with: 150 mM KCl
Baseline: input library
Reading: higher = stronger binding
Endpoint: log2 enrichment
All sequences stand within: GGGAGUUCUACAGUCCGACGAUC … UGGAAUUCUCGGGUGUCAAGG
GUCCUGUGCUACACAUCGUAUGUACCGAAUCGGGGAAAAAAAGGGGUGGGGAAAGGGGAAAGUAUUAUGUUACGCCGUUCGGAUCUGCAC: 1.93
UGGCCCUGGUGGCAUGCGGGGAGGAAGAGGUGGCCUCAUGGAUCGUGGUGGUCCCGGUGGAAUGUUCAGAGGUGGCCGUGGUGGAGACAG: 2.48
UCAAGUCCUGUGCUACACAUCGUAUGUACCGAAUCGGUUUUUUUGGAAAGGAGGAAAGUAUUAUGUUACGCCGUUCGGAUCUGCACUUCC: -1.26
UCAAGUCCUGUGCUACACAUCGUAUGUACCGAAUCGGUUGGGGUUGGGGUUGGGGAAAGUAUUAUGUUACGCCGUUCGGAUCUGCACUUC: 1.41
UGGGAGGUAGAUUUUGUUUAUUUUUUUAGCUCAUUUCCAGGGGUGGGAAUUUUUUUUUAAUAUGUGUCAUGAAUAAAGUUGUUUUUGAAA: 3.27
UGUGCUACACAUCGUAUGUACCGAAUCGGGGUUUUUUUGGUUUUUUUGGGGUUUUUUUGGGGAAAGUAUUAUGUUACGCCGUUCGGAUCU: -1.22
GUCCUGUGCUACACAUCGUAUGUACCGAAUCGGGUUUUUGGGAAAAAAAGGGUUUGGGAAAGUAUUAUGUUACGCCGUUCGGAUCUGCAC: -0.507
CUCAAGUCCUGUGCUACACAUCGUAUGUACCGAAUCGGUGGGGUGGGGUGGGGAAAGUAUUAUGUUACGCCGUUCGGAUCUGCACUUCCA: 1.01
ACCAUGCAGGUGGGCAUCUUUGGGAAGAAAGGCAAGGGGGGGAUAGGGAGGGGGGUAACACUUUGGGAACAGGUGGUCCCAGGUCGUUUC: -1.06
CCUCAAGUCCUGUGCUACACAUCGUAUGUACCGAAUCGGGCGGGCGGGCGGGAAAGUAUUAUGUUACGCCGUUCGGAUCUGCACUUCCAG: 1.73
CUGUGCUACACAUCGUAUGUACCGAAUCGGGGUUUUUUUGGGGAAAAAGGGGAAAAAGGGGAAAGUAUUAUGUUACGCCGUUCGGAUCUG: 0.0247
CUCAAGUCCUGUGCUACACAUCGUAUGUACCGAAUCGGAGGUGGUUUUUUUGGAAAGUAUUAUGUUACGCCGUUCGGAUCUGCACUUCCA: -1.14
UGAAGACACAGCAUCCACCCGAUCUUCAUUCACUGUCCAAGACCUUAAACCUUUUACAGAAUAUGUGUUUAGGAUUCGCUGUAUGAAGGA: -0.509
CUGUGCUACACAUCGUAUGUACCGAAUCGGGGUUUUUUUGGUUUUUUUGGGUUUUUUUGGGGAAAGUAUUAUGUUACGCCGUUCGGAUCU: -1.42

Block 6
Target: CREB5, bZIP domain (human)
Method: DHFR protein complementation
Medium: yeast
Notes: single substitutions, most at no-binding floor
Baseline: wild-type JUN-FOS pair
Reading: higher = stronger binding
Endpoint: binding fitness
Starting sequence: JUN, bZIP domain (human); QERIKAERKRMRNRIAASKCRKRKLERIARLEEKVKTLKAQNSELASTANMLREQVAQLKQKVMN; partner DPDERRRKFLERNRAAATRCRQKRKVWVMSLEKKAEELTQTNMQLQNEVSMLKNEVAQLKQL
A29H: -0.29 natural log
E44K: -0.343 natural log
E33L: -0.391 natural log
A29Q: -0.29 natural log
K36T: -0.466 natural log
E54T: -0.441 natural log
M51A: -0.154 natural log
M51G: -0.391 natural log
V56I: -0.105 natural log
M51F: -0.261 natural log
L31H: -1.4 natural log
A29P: -0.989 natural log
Q55T: -0.443 natural log
M51Y: -0.299 natural log
E32M: -0.433 natural log
I28L: -0.297 natural log
T37D: -0.286 natural log
E32L: -0.302 natural log
S47A: -0.159 natural log
N42C: -0.925 natural log
S43C: -0.347 natural log
